Measured values pooled from the literature.
Every numbered part comes from another study and shows a few of its results, in no order. Changes are numbered by the printed parent chain.

Sample 1 — technique: RNA Bind-n-Seq; molecule type: RNA; matrix: in vitro; tested at: 365 nM; relative to: no-protein control; reading: higher = stronger binding
Target: RNA binding protein fox-1 homolog 2, RRM domain, GST-SBP tag (RBFOX2, Homo sapiens, UniProt O43251-10, residues 100-194)
Setting: natural RNA segment, single round, ends assumed
Shared flanks, not repeated: GGGAGUUCUACAGUCCGACGAUC … UGGAAUUCUCGGGUGCCAA
Strand | RBNS enrichment (R)
GAAAUUUGAAGUCUUUAUAACUUAAUUAUGUUUAAUAAAAAAUAGAGUCUGCCUCGUACUACAGAUGAACUCAUUUGUAUAUUGCAGACAGACCCAAAGUGGCACUGAAU | 0.52
CAUUGUCCCCUGCCUCCUCUGUAAUUUUUGCCCCUUCCAGGGUACGGAAUGUGUCAGUGCAUUUUCUCCUUGCUGAGAGUCUCAGCUCCAAUCUCUUCAUAAUUUUGUUC | 0.659
AGGGGCAGGGGCCCACCGCACACCCUUGUCCCGGGCCUGUCUGGGACUGGCCUUCCCGGCUCAGCCAGUGAGGCUCAGAAGGGACACAAAGAGGGAUGGAAGAAAAGAAC | 0.394
UUUUGUUGUAAGGAGAAAACCAGCUCAGACUUUUGUCCCUGUAGGUGAUGGUAGUGGUCAGAAAUGGCUUUUGCUUUGGUAAUAAGUGAAUUUUAUUCCCCAAGAGUCUC | 0.403
AGCCAUUGUUCUCUCUGGACCACAGCCUGGAAGCUACUCUAAUUCCCUUUUUCUACAUAUGUGUAGAUUCAUUCUAUAAGGUCUGUUCUCUAAAGAACCUUAACUAAUGC | 0.392
CCAAAGUUUCCAUGGUCCUAUGGGAUAGCCUUCAGCCUCUGGAGACCCAGAGCUUGCCUGCCAGGGCUUGGUUCUCCAUUUCCACUGCUGACAUUUGAUUUCCAGUGUAU | 1.57
GUCCUGUAAAUCGUGUAUUCAUGUUGAUGAUUCUUGGAGAUAGGUUUCACUUUUUCCCAGCUGCGUCCACAGGAAAGGGGAGUCGGAUGCCAGCUGCACCCCGCCUGGCU | 0.509
UAUGCAAGCAAACACACUCUCACCUCCUCUCCCAGCCUCCCGGAGCUCUGAGCACGCCCCACGCAUGGUGCAGGAGGGACUGGACAGAUCUGAGGAAGGCCGUAAAAUGG | 6.56

Sample 2 — target: CCND3, cyclin fold, Cln2 fusion (human); technique: yeast growth competition, sequencing; matrix: yeast; setting: weak parent motif; relative to: not given; reading: higher = stronger binding
Parent: SCAPER docking peptide (human); SNARRSLNFGGST
Change | normalised enrichment score
N2G | 0.202
A3W | 0.0912
N8K | 0.167
T13G | 0.129
G10W | 0.224
A3G | 0.111
S1N | 0.0916
G11R | 0.0196
F9M | 0.165
G10T | 0.118
S12F | 0.135
G10K | 0.0845
N2D | 0.0464
S1T | 0.154
T13P | 0.135
G10M | 0.142
S1I | 0.0562
N8S | 0.245
S6M | 0.21
L7V | 0.0865
S12I | 0.21
S6V | 0.175
F9E | 0.0197
A3C | 0.0856
N2Q | 0.125

Sample 3 — technique: RNA Bind-n-Seq; molecule type: RNA; matrix: in vitro; tested at: 200 nM; setting: whole 134-nt RNA, ends assumed; added: 150 mM KCl; relative to: input library; reading: higher = stronger binding
Target: Ras GTPase-activating protein-binding protein 1, full length (G3BP1, Homo sapiens, UniProt Q13283)
Chain of UniProt Q13283 (whole entry, looked up): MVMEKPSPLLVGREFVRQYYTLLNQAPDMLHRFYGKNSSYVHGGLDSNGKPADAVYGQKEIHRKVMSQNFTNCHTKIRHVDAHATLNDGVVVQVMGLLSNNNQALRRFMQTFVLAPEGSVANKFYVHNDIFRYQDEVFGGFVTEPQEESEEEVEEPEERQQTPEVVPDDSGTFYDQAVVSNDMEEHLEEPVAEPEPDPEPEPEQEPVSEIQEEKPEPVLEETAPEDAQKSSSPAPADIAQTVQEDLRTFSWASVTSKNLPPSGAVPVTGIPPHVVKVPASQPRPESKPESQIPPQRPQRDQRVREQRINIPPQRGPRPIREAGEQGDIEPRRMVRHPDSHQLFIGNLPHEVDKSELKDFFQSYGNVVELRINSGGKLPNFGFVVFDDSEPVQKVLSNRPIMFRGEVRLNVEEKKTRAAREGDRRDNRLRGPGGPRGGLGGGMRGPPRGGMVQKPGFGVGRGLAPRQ
Shared flanks, not repeated: GGGAGUUCUACAGUCCGACGAUC … UGGAAUUCUCGGGUGUCAAGG
Strand | log2 enrichment
CCUCAAGUCCUGUGCUACACAUCGUAUGUACCGAAUCGGAAGGAAGGGAAGGAAAGUAUUAUGUUACGCCGUUCGGAUCUGCACUUCCAG | -0.0855
GUCCUGUGCUACACAUCGUAUGUACCGAAUCGGGAAAAAGGGUUUUUGGGAAAAAGGGAAAGUAUUAUGUUACGCCGUUCGGAUCUGCAC | -0.611
UCCUGUGCUACACAUCGUAUGUACCGAAUCGGUUUUUUGGGGUUUUUUGGUUUUUUGGGGAAAGUAUUAUGUUACGCCGUUCGGAUCUGC | -0.605
UAACUUUAGAGGAGGAUCUGAUGGAUAUGGCAGUGGACGUGGAUUUGGGGAUGGCUAUAAUGGGUAUGGAGGAGGACCUGGUGGUGGCAA | 0.205
CACAGACAACACGCACCCACACAGACACAGAGGGAAGGGGUUGGGAUGGGGACAGGGUGCACAGCAGGGCGGAAAAGGACCCCAGCCCCU | 1.8
UGCCUCCCUGCUGCAGAAAUACACCGACAACAGCGAGAAGCCAUCCGGGAAGAGACUGUGCAAAACCAAACACUUGAUCCCUCAGGAGUC | 0.0889
UGGCCCUGGUGGCAUGCGGGGAGGAAGAGGUGGCCUCAUGGAUCGUGUUGGUCCCGGUGGAAUGUUCAGAGGUGGCCGUGGUGGAGACAG | 0.0577
UGGAUGGACACCAUUAUCGUCGUGUGGCACGGGUUGACCUAAGGAAGAAGACAGAGACUUUCUCCACAAGAAGGGUUAAGUCUGGGCUGU | -0.0932
AGUCCUGUGCUACACAUCGUAUGUACCGAAUCGGGGAAAAGGGGAAAAGGGAAAAGGAAAGUAUUAUGUUACGCCGUUCGGAUCUGCACU | -0.47

Sample 4 — technique: RNAcompete; molecule type: RNA; matrix: in vitro; tested at: 20 nM; setting: 7-mer, probes averaged, single round; relative to: mean of 7-mers; reading: higher = stronger binding
Target: PABPC1L2, full length, GST fusion (mouse, UniProt A0ABA7IW68)
Construct (chain): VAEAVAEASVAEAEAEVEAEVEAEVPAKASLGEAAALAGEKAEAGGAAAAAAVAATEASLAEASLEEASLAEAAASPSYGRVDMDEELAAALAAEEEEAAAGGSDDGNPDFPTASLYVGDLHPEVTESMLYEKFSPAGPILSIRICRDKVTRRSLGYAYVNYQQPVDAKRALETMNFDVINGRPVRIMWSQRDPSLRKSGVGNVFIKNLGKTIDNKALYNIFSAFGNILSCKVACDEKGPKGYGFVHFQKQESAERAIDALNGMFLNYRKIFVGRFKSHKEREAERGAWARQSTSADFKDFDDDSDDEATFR
Strand | 7-mer Z-score
UCUUAGU | -0.431
AAAAAUA | 15
AGGAUAC | -0.0536
AUUUAGA | 0.548
GGUAGGG | 0.18
CCGCUAA | -0.0446
UCAUACC | -0.32
UCAUAUC | -0.302
UUGAGAC | -0.119
AAGUCAU | -0.0663
GCACUAU | 0.0696
CAAGUAC | -0.137
GCAAACU | 0.0352
AGUCCCC | -0.287
AAUUUCC | -0.11
CCGACGG | -0.385

Repeated from above (sample 4):
Strand | 7-mer Z-score
UCAUAUC | -0.302
UUGAGAC | -0.119
AAGUCAU | -0.0663
GCACUAU | 0.0696
CAAGUAC | -0.137
GCAAACU | 0.0352
AGUCCCC | -0.287
